Experimental data of several laboratories.
“And” joins repeats or separate records; there may be more than shown. Numbers after ± are the reported error.

For `COC(=O)[C@@]1(C(C)C)C=C(C(=O)Nc2cccc(C(=O)Nc3ccc(Nc4nccc(-c5cccnc5)n4)c(C)c3)c2)C(=O)CC1`, the half-life was 4.81 h and 4.19 h (rat, blood plasma; 1 µM).
With `N#Cc1ccnc(N2C(=O)CC[C@H]2C(=O)N(c2cc(F)cc(F)c2)[C@H](C(=O)NC2CC(F)(F)C2)c2ccccc2Cl)c1` (stereo in doubt) the half-life was 9.9 h (Sprague-Dawley rat, plasma).
With `CC[C@H](C)[C@H](NC(=O)[C@H](Cc1ccc(O)cc1)NC(=O)[C@@H](NC(=O)[C@H](CCCNC(=N)N)NC(=O)[C@@H](N)CC(=O)O)C(C)C)C(=O)N[C@@H](Cc1c[nH]cn1)C(=O)N1CCC[C@H]1C(=O)O` the half-life was 0.453 h (LC-MS/MS; Sprague-Dawley rats, both sexes, plasma; subcutaneous, 10 mg/kg/day, day 0).
`CCCC[C@H](OC(C)=O)c1ccccc1C(=O)O` gave a half-life of 4.9 ± 1.5 h (Sprague-Dawley rat, both sexes, whole blood; intravenous, 5 mg/kg, day 7).
For `OC1(C(F)(F)F)CCN(c2nc(Nc3ccnc(C(F)(F)F)c3)nc(-c3cccc(C(F)(F)F)n3)n2)C1` (stereo not shown), the half-life was 13.9 ± 3.55 h (Sprague-Dawley rat, both sexes, plasma; oral gavage, 5 mg/kg, day 14).
With `Cl.NCc1ccc2c(c1)CN(C1CCC(=O)NC1=O)C2=O` (stereo not shown) the half-life was over 3 h (male Sprague-Dawley rat, whole blood).
`CCC1(CC)CC(=O)N(C2c3cc(C(=O)NC4c5ccccc5CC4O)ccc3OC2(C)COC)C(=N)N1` (stereo not shown) gave a half-life of 5.9 ± 0.7 h (Wistar Han rat male, plasma).
`COC(=O)[C@@]1(C)C=C(C(=O)Nc2cccc(C(=O)Nc3ccc(Nc4nccc(-c5cccnc5)n4)c(C)c3)c2)C(=O)CC1` has a half-life of 0.47 h (Wistar rat male, blood plasma; 1 µM).
With `COc1ccc([C@@H]2CC(=O)c3c(O)cc(O[C@@H]4O[C@H](CO)[C@@H](O)[C@H](O)[C@H]4O[C@@H]4O[C@@H](C)[C@H](O)[C@@H](O)[C@H]4O)cc3O2)cc1O` the half-life was 8.36 ± 6.97 h (LC-MS/MS; Sprague-Dawley rat, male, obese, plasma; intravenous, 4 mg/kg).
`C=C(NC(=O)c1csc(-c2nc3c(cc2O)-c2nc(cs2)C(=O)NC(C(C)O)C(=O)NC(=C(C)OC)c2nc(cs2)C(=O)NC2c4nc(cs4)C(=O)NC(COC(=O)c4c5c6c(cccc6n4O)COC(=O)C(OC4CC(C)(O)C(N(C)C)C(C)O4)C2OC5)c2nc-3cs2)n1)C(N)=O` (stereo not shown) has a half-life of 4.21 h (Sprague-Dawley rat, female, plasma; intravenous infusion, 6 mg/kg, multiple doses, day 1).

Excerpt of the above:
`CCC1(CC)CC(=O)N(C2c3cc(C(=O)NC4c5ccccc5CC4O)ccc3OC2(C)COC)C(=N)N1` (stereo not shown) gave a half-life of 5.9 ± 0.7 h (Wistar Han rat male, plasma).
